Assay results from different studies.
Every numbered part comes from another study and shows a few of its results, in no order.

Block 1
Structure (SMILES): COCC1CC2C(CCC3(C)C(O)CCC23)c2ccc(O)cc21 (centres unmarked)
Method: DNA microarray
Tested at: concentration not given
Relative to: untreated cells
cell line | assay | conditions | log2 fold change
PANC-1 | measured: ORC1L | – | -1.18
PANC-1 | measured: CALR3 | – | 2.49
PANC-1 | measured: MCM7 | – | -0.776
PANC-1 | measured: CDCA8 | – | -1.63
A549 | measured: DNER | – | 5.71
PANC-1 | measured: IL20RA | lower dose arm | 3.29
PANC-1 | measured: CALR3 | lower dose arm | 1.38
SK-OV-3 | measured: OLIG2 | higher dose arm | 3.47
PANC-1 | measured: GINS1 | – | -0.804
A549 | measured: GINS1 | – | -0.779
PANC-1 | measured: IL28A | lower dose arm | 1.44

Block 2
Target: Sodium-dependent neutral amino acid transporter B(0)AT1 (SLC6A19, Homo sapiens, UniProt Q695T7)
Sequence of UniProt Q695T7 (whole entry, looked up): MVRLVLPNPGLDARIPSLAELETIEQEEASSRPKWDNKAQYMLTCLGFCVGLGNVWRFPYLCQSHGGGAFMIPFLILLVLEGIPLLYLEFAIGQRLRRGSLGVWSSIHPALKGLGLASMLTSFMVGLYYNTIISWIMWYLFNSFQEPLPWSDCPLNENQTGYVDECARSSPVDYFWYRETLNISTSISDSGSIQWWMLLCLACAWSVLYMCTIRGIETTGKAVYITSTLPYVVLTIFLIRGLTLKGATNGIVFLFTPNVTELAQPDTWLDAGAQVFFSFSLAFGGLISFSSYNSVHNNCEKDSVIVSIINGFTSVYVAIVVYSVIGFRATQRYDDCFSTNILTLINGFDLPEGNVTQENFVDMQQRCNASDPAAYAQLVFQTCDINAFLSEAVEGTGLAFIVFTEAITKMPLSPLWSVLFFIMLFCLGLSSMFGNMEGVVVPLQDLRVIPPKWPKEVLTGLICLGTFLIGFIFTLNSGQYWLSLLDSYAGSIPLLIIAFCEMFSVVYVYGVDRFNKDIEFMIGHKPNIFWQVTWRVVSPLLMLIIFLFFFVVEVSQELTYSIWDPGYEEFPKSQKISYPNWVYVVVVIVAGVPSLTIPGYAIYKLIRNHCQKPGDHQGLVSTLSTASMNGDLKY
Method: FLIPR membrane potential
Cells: CHO-BC
Tested at: concentration not given
Relative to: background subtracted
SMILES | remaining activity
Cc1cc(NCC(=O)NC(C)C)cc(C)c1I | -2.56%
Cc1cc(NCC(=O)NC(C)C)cc(C)c1Br | -2.02%
CNC(=O)COc1cc(C)c(Cl)c(C)c1 | 44.1%
Cc1cc(OCC(=O)NC(C)C)cc(C)c1Br | 11.4%
CCNC(=O)COc1cc(C)c(Cl)c(C)c1 | 3.46%
Cc1cc(OCC(=O)NC(C)C)ccc1Cl | 8.08%
CC(C)NC(=O)COC(c1ccccc1)c1ccccc1 | 82.9%
Cc1cc(NCC(=O)NC(C)C)cc(C)c1Cl | -1.72%
CC(C)NC(=O)CSc1ccc(Cl)cc1 | 10.5%
CC(C)NC(=O)CSc1ccc([N+](=O)[O-])cc1 | 38.6%

Block 3
Species: female CD-1 mouse
Matrix: plasma
Route: intravenous
Dose: 1 mg/kg
SMILES | Vd [L/kg]
Cc1ccc(O)c(C)c1-c1cnc2[nH]c(-c3cnc(N4CCC(CN5CCN(c6cc7c(cc6F)c(N6CCC(=O)NC6=O)nn7C)CC5)CC4)nc3)cc2c1C#N | 2.1
Cc1ccc(O)c(C)c1-c1cnc2[nH]c(-c3cnc(N4CCC(CN5CCC(c6ccc(NC7CCC(=O)NC7=O)cc6F)CC5)CC4)nc3)cc2c1C#N (centres unmarked) | 4.2
Cc1ccc(O)c(C)c1-c1cnc2[nH]c(-c3cnc(N4CCC5(CC4)CC(N4CCN(c6ccc(N[C@H]7CCC(=O)NC7=O)cc6F)CC4)CO5)nc3)cc2c1C#N (single isomer, unassigned) | 6.6
Cc1ccc(O)c(C)c1-c1cnc2[nH]c(-c3cnc(N4CCC(CN5CCN(c6ccc7c(c6)CN(C6CCC(=O)NC6=O)C7=O)CC5)CC4)nc3)cc2c1C#N (centres unmarked) | 1.3
Cc1ccc(O)c(C)c1-c1cnc2[nH]c(-c3cnc(N4CCC(CN5CCN(c6ccc7c(c6)C(=O)N(C6CCC(=O)NC6=O)C7=O)CC5)CC4)nc3)cc2c1C#N (centres unmarked) | 3.6
Cc1ccc(O)c(C)c1-c1cnc2[nH]c(-c3cnc(N4CCC(CCN5CCN(c6ccc(NC7CCC(=O)NC7=O)cc6F)CC5)CC4)nc3)cc2c1C#N (centres unmarked) | 4.5

Block 4
Compound: C[C@@H]1CN(c2ccc(-c3cc(C(=O)NCCOCCOCCOCCOCCOCCOCCNC(=O)/C=C/c4[nH]cc(C(=O)N[C@@H](CC(N)=O)c5ccc(F)c(Cl)c5)c4-c4ccc(Cl)cc4F)ccc3F)cc2NC(=O)c2ccc(F)cc2C(F)(F)F)C[C@H](C)N1C
Effect on: thermal unfolding
Method: differential scanning fluorimetry
Tested at: 5.5 µM
Reading: higher = more unfolded
WDR5: WD repeat-containing protein 5 (WDR5, Homo sapiens, UniProt P61964)
DCAF1: DDB1- and CUL4-associated factor 1 (DCAF1, Homo sapiens, UniProt Q9Y4B6)
Sequence of UniProt Q9Y4B6 (whole entry, looked up): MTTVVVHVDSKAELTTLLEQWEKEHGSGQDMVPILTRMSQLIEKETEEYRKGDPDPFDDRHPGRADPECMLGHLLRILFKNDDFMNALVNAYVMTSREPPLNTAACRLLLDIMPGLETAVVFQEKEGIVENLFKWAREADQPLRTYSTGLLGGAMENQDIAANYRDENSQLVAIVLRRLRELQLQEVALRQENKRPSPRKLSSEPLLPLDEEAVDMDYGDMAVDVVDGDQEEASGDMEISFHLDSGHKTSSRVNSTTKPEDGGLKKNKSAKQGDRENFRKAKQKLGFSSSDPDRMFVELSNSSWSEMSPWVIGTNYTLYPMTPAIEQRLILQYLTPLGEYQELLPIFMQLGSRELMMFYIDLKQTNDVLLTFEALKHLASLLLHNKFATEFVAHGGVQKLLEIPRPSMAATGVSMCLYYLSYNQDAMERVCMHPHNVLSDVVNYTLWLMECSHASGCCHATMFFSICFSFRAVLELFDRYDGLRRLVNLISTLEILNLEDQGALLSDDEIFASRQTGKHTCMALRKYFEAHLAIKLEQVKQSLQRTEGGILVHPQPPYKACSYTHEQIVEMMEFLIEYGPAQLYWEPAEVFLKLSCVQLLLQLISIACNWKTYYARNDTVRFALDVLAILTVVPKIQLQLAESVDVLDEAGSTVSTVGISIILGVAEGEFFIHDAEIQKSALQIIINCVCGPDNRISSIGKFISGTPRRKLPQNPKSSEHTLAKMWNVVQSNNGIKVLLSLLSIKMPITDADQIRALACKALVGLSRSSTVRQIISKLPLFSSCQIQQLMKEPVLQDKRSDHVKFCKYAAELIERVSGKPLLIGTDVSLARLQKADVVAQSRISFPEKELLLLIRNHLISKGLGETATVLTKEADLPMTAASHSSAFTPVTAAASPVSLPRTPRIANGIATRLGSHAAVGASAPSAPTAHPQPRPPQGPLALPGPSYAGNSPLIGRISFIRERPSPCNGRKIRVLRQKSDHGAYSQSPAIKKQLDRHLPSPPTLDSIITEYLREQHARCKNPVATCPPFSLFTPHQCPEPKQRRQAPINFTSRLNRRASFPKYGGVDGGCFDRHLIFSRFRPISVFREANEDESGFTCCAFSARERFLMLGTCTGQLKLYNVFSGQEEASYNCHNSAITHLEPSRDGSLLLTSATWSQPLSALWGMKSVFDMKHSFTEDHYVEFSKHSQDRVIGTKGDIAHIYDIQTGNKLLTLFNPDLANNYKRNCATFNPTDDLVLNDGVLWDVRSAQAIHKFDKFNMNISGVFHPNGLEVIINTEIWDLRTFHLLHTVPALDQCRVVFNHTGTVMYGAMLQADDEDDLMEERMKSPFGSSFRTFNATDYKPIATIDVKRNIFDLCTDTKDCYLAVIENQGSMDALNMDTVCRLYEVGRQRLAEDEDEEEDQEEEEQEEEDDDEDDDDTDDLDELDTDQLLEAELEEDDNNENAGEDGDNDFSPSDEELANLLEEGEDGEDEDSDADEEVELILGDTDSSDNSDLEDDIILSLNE
target | conditions | SYPRO Orange fluorescence
WDR5 | 77.41 °C | 58400 a.u.
WDR5 | 55.01 °C | 16800 a.u.
DCAF1 | 55.81 °C | 29700 a.u.
WDR5 | 32.6 °C | 13800 a.u.
WDR5 | 26.2 °C | 13200 a.u.
DCAF1 | 91.41 °C | 31300 a.u.
WDR5 | 43.8 °C | 14500 a.u.
WDR5 | 93.21 °C | 50300 a.u.
WDR5 | 35.2 °C | 14000 a.u.
DCAF1 | 77.41 °C | 41700 a.u.
DCAF1 | 48.4 °C | 16900 a.u.

For quick reference, copied from above (block 2):
SMILES | remaining activity
Cc1cc(NCC(=O)NC(C)C)cc(C)c1I | -2.56%
Cc1cc(NCC(=O)NC(C)C)cc(C)c1Br | -2.02%
CNC(=O)COc1cc(C)c(Cl)c(C)c1 | 44.1%
Cc1cc(OCC(=O)NC(C)C)cc(C)c1Br | 11.4%
